Results collected from several papers.
Protocols differ between the studies behind these lines. “And” joins repeats or separate records; there may be more than shown. ± marks the error that the study gave.
USP14: Ubiquitin carboxyl-terminal hydrolase 14 (USP14, Homo sapiens, UniProt P54578)
PPO3: PPO3 (Agaricus bisporus, UniProt C7FF04)
Gria2/Glutamate receptor 3: Gria2/Glutamate receptor 3 (Rattus norvegicus, UniProt P19491+P19492)

SMILES | target or system | assay | system | conditions | how to read | measurement | value
C=CC(=O)N1CCCC(n2c(=O)c3ncccc3n(Cc3ccc(Oc4ccccc4)cc3)c2=O)C1 (stereo not drawn) | Protein phosphatase 1 regulatory subunit 7 (Homo sapiens, UniProt Q15435) | thermal proteome profiling, measured: PPP1R7 | – | unit not given | reference: vehicle | melting temperature shift | -2.96
CC1(C)CC(=O)C(=NNc2ccc3c(c2)OCO3)C(=O)C1 | USP14 | enzyme activity, inhibitor | – | 17 µM | – | inhibition | 6%
COC1CN([C@H]2CC[C@H]([C@@]3(C)Oc4c(Cl)cc(C(=O)NCc5c(SC)cc(C)[nH]c5=O)c(C)c4O3)CC2)C1 | – | RNA-seq, measured: MMP9 mouse homolog | mouse, HT-1376 xenograft, whole blood | dose not given | reference: vehicle | log2 fold change | 0.15
C[n+]1cc(NC(=O)c2ccc3ccc4ccc(C(=O)Nc5cc6ccccc6[n+](C)c5)nc4c3n2)cc2ccccc21 | MYC promoter parallel G-quadruplex DNA | UV melting | – | 3 µM, 10 mM potassium, added: DNA 3 µM | – | delta Tm | 4.3 °C
CC(=O)C12NC(C)(C)CC1(C)C(=O)C1=C2c2c(c3c4n2C(C)(C)CC2=C4C4(CC(C)(C)NC(C)(C4)C2=O)CC3(C)C)C(=O)C(C)(C)N1 (single isomer, unassigned; (-)) | Neuronal acetylcholine receptor; alpha3/beta4 (Homo sapiens, UniProt P30926+P32297) | ion current, agonist, whole-cell patch clamp | HEK293T | 10 µM | – | activation | 0.58%
CCCCCC=CC=C1C(=O)C=CC1CC=CCCCC(=O)O (stereo not drawn) | Large ribosomal subunit protein uL4 (Homo sapiens, UniProt P36578) | competitive isoTOP-ABPP, measured: RPL4 cysteine peptide | Ramos soluble proteome | 100 µM, added: iodoacetamide probe | reference: DMSO over compound-treated, higher = stronger cysteine blockade | isoTOP-ABPP competition ratio | 1.5
O=C(Nc1cc(C(=O)Nc2ccc(S(=O)(=O)O)cc2S(=O)(=O)O)cc(C(=O)Nc2ccc(S(=O)(=O)O)cc2S(=O)(=O)O)c1)Nc1cc(C(=O)Nc2ccc(S(=O)(=O)O)cc2S(=O)(=O)O)cc(C(=O)Nc2ccc(S(=O)(=O)O)cc2S(=O)(=O)O)c1 | P2X purinoceptor 1 (P2RX1, Homo sapiens, UniProt P51575) | antagonist, calcium influx | – | 10 nM, added: submaximal α,β-methylene ATP | reference: ionomycin response | calcium influx | 100% and 96% and 85.4%
CCC(=O)/C=C\c1nnc2cc3c(cc2c1-c1ccc(CC)o1)OCCO3 | USP14 | enzyme activity, inhibitor | – | 17 µM | – | inhibition | 59%
C[C@](C(=O)NC1CCOCC1)(c1cncnc1)N(C(=O)[C@H](F)Cl)c1ccc(OC(F)(F)Cl)cc1 | MMP9 (Homo sapiens, UniProt P14780) | enzyme activity, inhibitor | – | 10 µM | – | remaining activity | 102%
N#Cc1ccc(N2C(=O)c3ccccc3C2=O)cc1 | USP14 | enzyme activity, inhibitor | – | 17 µM | – | inhibition | 30%
CC(=O)N[C@@H](Cc1ccc(O)cc1)C(=O)N[C@@H](CC(N)=O)C(=O)N1CCC[C@H]1C(=O)N[C@@H](Cc1ccccc1)C(=O)N[C@@H](CCC(=O)O)C(=O)N[C@@H](CCC(=O)O)C(=O)NCC(=O)NCC(N)=O | EH domain-containing protein 1, EH domain (Homo sapiens, UniProt Q9H4M9) | peptide binding, ITC | – | concentration not given, 15 mM NaCl | – | binding stoichiometry | 1.04 and 1.08 and 1.06 and 1.13
C=CC(=O)Nc1cccc(Cn2ncc3cnc(Nc4cnn(CCOC)c4)nc32)c1 | NEK3 human | binding, KINOMEscan | – | 100 nM | lower = stronger binding | percent of control | 67%
Nc1ncc(-c2cc(-c3cnn(CC(F)(F)F)c3)ncc2F)nc1C(=O)NC1CNCC(F)C1 (stereo not drawn) | NLK | KINOMEscan | – | 1 µM | reference: DMSO control | remaining binding | 86%
Oc1cc(O)c2cc(O[C@@H]3OC[C@H](O)[C@H](O)[C@H]3O)c(-c3ccc(O)c(O)c3)[o+]c2c1 | PPO3 | fluorescence quenching | – | concentration not given, 318 K | – | number of binding sites | 0.839
CCCC[C@H](NC(=O)CCCCCCCNC(=O)CN1CCN(CC(=O)O)CCN(CC(=O)O)CC1)C(=O)N[C@H]1CC(=O)NCCCC[C@@H](C(N)=O)NC(=O)[C@H](Cc2c[nH]c3ccccc23)NC(=O)[C@H](CCCNC(=N)N)NC(=O)[C@@H](Cc2ccccc2)NC(=O)[C@H](Cc2c[nH]cn2)NC1=O [technetium-99m labelled] | – | – | C57 mouse, skin | intravenous, 0.037 MBq, 0.5 h | – | tissue uptake | 1.48 ± 0.09 %ID/g
C#CCOC(=O)[C@@]1(C)C=C(C(=O)Nc2cccc(C(=O)Nc3ccc(C)c(Nc4nccc(-c5cccnc5)n4)c3)c2)C(=O)CC1 | MAPK9 (Homo sapiens, UniProt P45984) | enzyme activity, inhibitor | – | 0.02032 µM, unit not given | reference: vehicle | remaining activity | 0.883
Cc1ccc(-c2cc(CN3c4ccccc4C=Cc4ccccc43)on2)cc1 | PPO3 | enzyme activity, inhibitor | – | concentration not given | – | apparent Vmax | 32.9 µmol/min
COc1ccc(C(=O)c2c(C(=O)NCCCN(C)C)oc3ccc(Cl)cc3c2=O)cc1OC | GHSR (Homo sapiens, UniProt Q92847) | endosomal trafficking, agonist, bystander BRET 2xFYVE-Venus | – | 90 min, unit not given | reference: baseline | Emax (net BRET) | 0.028 ± 0.007

SMILES | target or system | assay | system | conditions | how to read | measurement | value
CCCCCCCCCCCCC/C=C/C=O | Histone acetyltransferase type B catalytic subunit (Homo sapiens, UniProt O14929) | competitive isoTOP-ABPP, measured: HAT1 cysteine peptide | Ramos soluble proteome | 100 µM, added: iodoacetamide probe | reference: DMSO over compound-treated, higher = stronger cysteine blockade | isoTOP-ABPP competition ratio | 1
CNS(=O)(=O)Nc1nccc(Cc2c(C)c3ccc(Oc4ncccc4F)cc3oc2=O)c1F | PC-9 | cell viability | – | 7 days | – | IC50 | 179 nM
O=C1C[C@H](c2nc(-c3ccc(F)c4cn[nH]c34)no2)CCCN1c1ccc(F)cc1 (racemic) | CNR2 (Homo sapiens, UniProt P34972) | agonist, GloSensor cAMP | CHO expressing CB2 | 1 pM | – | cAMP inhibition | -1.14% and 5.14% and -13.1%
COC(=O)Cc1cc2c(cc1C(=O)c1cccc(Br)c1)OCO2 | Gria2/Glutamate receptor 3 | glutamate-evoked current, whole-cell patch clamp | HEK-293T | concentration not given, pH 7.4, holding potential -60 mV, added: 10 mM glutamate | – | current amplitude | 211 ± 17 pA
CCCCCCCO[C@H]1CO[C@H](CO)[C@@H](O)[C@H](O)[C@@H]1O | Type 1 fimbrin D-mannose specific adhesin, lectin domain (fimH, Escherichia coli K-12, UniProt P08191) | binding, isothermal titration calorimetry | – | 37 °C, individual direct titrations | – | -TΔS | 24.1 kJ/mol and 22.2 kJ/mol
Cc1ncsc1-c1ccc(C(C)NC(=O)C2CC(O)CN2C(=O)C(NC(=O)CCCCCCCCCCN2CCCC(Nc3ncc(Cl)c(Nc4ccccc4S(=O)(=O)C(C)C)n3)C2)C(C)(C)C)cc1 (stereo not drawn) | 22Rv1 | RNA-seq, measured: XRCC2 mRNA | – | concentration not given | reference: DMSO | log2 fold change | -1.1
O=C(O)C1CCCN(CC=CC(c2ccc3ccoc3c2)(c2ccc3ccoc3c2)c2ccc3ccoc3c2)C1 (stereo not drawn) | SLC6A9 (Homo sapiens, UniProt P48067) | cell-free assay | – | 1 µM | – | remaining signal | 85.7%
O=C(CCCCCCS)Nc1ccccc1 | HDAC8 (Homo sapiens, UniProt Q9BY41) | ITC | Tris-HCl buffer | 298 K | – | TΔS° | 2.8 kcal/mol
CC(C)Oc1cc(Cl)ccc1CNc1cc(-c2ccccc2)nc2ncnn12 | GPR3 (Homo sapiens, UniProt P46089, L128A) | cAMP level, cAMP GloSensor | – | 1 nM | higher = more cAMP | cAMP luminescence | 17500 a.u. and 30200 a.u. and 31500 a.u. and 16900 a.u.
COC(=O)Cc1cc2c(cc1C(=O)c1ccc(Cl)cc1Cl)OCO2 | Gria2/Glutamate receptor 3 | glutamate-evoked current, whole-cell patch clamp | HEK-293T | concentration not given, weighted tau, 1 ms pulse, added: glutamate | – | deactivation time constant | 3.2 ± 0.2 ms
O=C(N/N=C/c1cc[n+](CC2CC2)c2ccccc12)c1ccc2ccc(C(=O)N/N=C/c3cc[n+](CC4CC4)c4ccccc34)nc2n1 | MYC parallel G4 DNA | FRET melting | – | 1 µM, DNA 0.2 µM | – | ΔTm | 15.8 °C
Cc1nn(-c2cccc(N)c2)c(=O)c2cnc(Nc3ccc(N4CCNCC4)cc3)nc12 | PLK1 (Homo sapiens, UniProt P53350) | enzyme activity, inhibitor | – | – | – | IC50 | > 10000 nM
C=C(NC(=O)c1csc(-c2nc3c(cc2O)-c2nc(cs2)C(=O)NC(C(C)O)C(=O)NC(=C(C)OC)c2nc(cs2)C(=O)NC2c4nc(cs4)C(=O)NC(COC(=O)c4c5c6c(cccc6n4O)COC(=O)C(OC4CC(C)(O)C(N(C)C)C(C)O4)C2OC5)c2nc-3cs2)n1)C(N)=O (stereo not drawn) | – | – | cynomolgus monkey, female, plasma | intravenous infusion, 1 mg/kg single dose | – | volume of distribution | 704 mL/kg
O=C1c2sc(-c3ccc(N4CCC(F)C4)nc3F)nc2CCN1c1cccnc1 (stereo not drawn) | TAR DNA-binding protein 43, aggregated (TARDBP, Homo sapiens, UniProt Q13148) | autoradiography | human, non-demented control sections | 10 nM | higher = more binding | specific binding | 1.19 a.u. and 2.23 a.u. and 2.05 a.u. and 1.83 a.u. and 1.27 a.u.
CC[C@H](C)[C@H](NC(=O)[C@@H](NC(=O)[C@@H](NC(=O)[C@@H](NC(=O)[C@H](CCCNC(=N)N)NC(=O)[C@H](CCC(=O)O)NC(=O)[C@H](CCC(=O)O)NC(=O)[C@H](C)NC(=O)[C@H](CCC(=O)O)NC(=O)CNC(=O)[C@H](C)NC(=O)CN)C(C)C)C(C)C)C(C)C)C(=O)N[C@@H](CO)C(=O)N[C@@H](CO)C(=O)N[C@@H](CO)C(=O)N[C@@H](CCC(=O)O)C(=O)N[C@@H](CC(=O)O)C(=O)N[C@@H](CO)C(=O)N[C@@H](CC(=O)O)C(=O)N[C@@H](C)C(=O)N[C@@H](CCC(=O)O)C(=O)N[C@@H](CC(N)=O)C(=O)N[C@@H](CO)C(=O)N[C@@H](CO)C(=O)N[C@@H](CO)C(=O)N[C@@H](CCCNC(=N)N)C(=O)N[C@@H](Cc1ccc(O)cc1)C(=O)O | Small ubiquitin-related modifier 1, residues 17-97 (Homo sapiens, UniProt P63165, C52A) | isothermal titration calorimetry | – | concentration not given, pH 7.4, N-terminally truncated SUMO1 | – | enthalpy change (ΔH) | 2.12 ± 0.22 kcal/mol
CN(CCc1ccc(Cl)c(Cl)c1)CC(O)COc1ccc(NS(C)(=O)=O)cc1 (stereo not drawn) | PKD2L1 (Homo sapiens, UniProt Q9P0L9, F514A) | ion current, patch clamp | – | concentration not given | – | tail current | inhibited
CCCC[C@H](NC(=O)COCCOCCNC(=O)CN1CCN(CC(=O)O)CCN(CC(=O)O)CC1)C(=O)N[C@H]1CC(=O)NCCCC[C@@H](C(N)=O)NC(=O)[C@H](Cc2c[nH]c3ccccc23)NC(=O)[C@H](CCCNC(=N)N)NC(=O)[C@@H](Cc2ccccc2)NC(=O)[C@H](Cc2c[nH]cn2)NC1=O [technetium-99m labelled] | – | – | C57 mouse, lung | intravenous, 0.037 MBq, 0.5 h | – | tissue uptake | 3.71 ± 1.43 %ID/g
Cc1oc2c(c1C(=O)NCc1ccccn1)C(=O)c1ccccc1C2=O | USP14 | enzyme activity, inhibitor | – | 17 µM | – | inhibition | 22%

For quick reference, copied from above:
SMILES | target or system | assay | system | conditions | how to read | measurement | value
Cc1ccc(-c2cc(CN3c4ccccc4C=Cc4ccccc43)on2)cc1 | PPO3 | enzyme activity, inhibitor | – | concentration not given | – | apparent Vmax | 32.9 µmol/min
COc1ccc(C(=O)c2c(C(=O)NCCCN(C)C)oc3ccc(Cl)cc3c2=O)cc1OC | GHSR (Homo sapiens, UniProt Q92847) | endosomal trafficking, agonist, bystander BRET 2xFYVE-Venus | – | 90 min, unit not given | reference: baseline | Emax (net BRET) | 0.028 ± 0.007
C[n+]1cc(NC(=O)c2ccc3ccc4ccc(C(=O)Nc5cc6ccccc6[n+](C)c5)nc4c3n2)cc2ccccc21 | MYC promoter parallel G-quadruplex DNA | UV melting | – | 3 µM, 10 mM potassium, added: DNA 3 µM | – | delta Tm | 4.3 °C
Cc1nn(-c2cccc(N)c2)c(=O)c2cnc(Nc3ccc(N4CCNCC4)cc3)nc12 | PLK1 (Homo sapiens, UniProt P53350) | enzyme activity, inhibitor | – | – | – | IC50 | > 10000 nM
CN(CCc1ccc(Cl)c(Cl)c1)CC(O)COc1ccc(NS(C)(=O)=O)cc1 (stereo not drawn) | PKD2L1 (Homo sapiens, UniProt Q9P0L9, F514A) | ion current, patch clamp | – | concentration not given | – | tail current | inhibited
CC(C)Oc1cc(Cl)ccc1CNc1cc(-c2ccccc2)nc2ncnn12 | GPR3 (Homo sapiens, UniProt P46089, L128A) | cAMP level, cAMP GloSensor | – | 1 nM | higher = more cAMP | cAMP luminescence | 17500 a.u. and 30200 a.u. and 31500 a.u. and 16900 a.u.
